Published values from different studies.
Protocols differ between the studies behind these lines. “And” joins repeats or separate records; there may be more than shown. ± marks the error that the study gave.
Chain of UniProt P45985 (whole entry, looked up): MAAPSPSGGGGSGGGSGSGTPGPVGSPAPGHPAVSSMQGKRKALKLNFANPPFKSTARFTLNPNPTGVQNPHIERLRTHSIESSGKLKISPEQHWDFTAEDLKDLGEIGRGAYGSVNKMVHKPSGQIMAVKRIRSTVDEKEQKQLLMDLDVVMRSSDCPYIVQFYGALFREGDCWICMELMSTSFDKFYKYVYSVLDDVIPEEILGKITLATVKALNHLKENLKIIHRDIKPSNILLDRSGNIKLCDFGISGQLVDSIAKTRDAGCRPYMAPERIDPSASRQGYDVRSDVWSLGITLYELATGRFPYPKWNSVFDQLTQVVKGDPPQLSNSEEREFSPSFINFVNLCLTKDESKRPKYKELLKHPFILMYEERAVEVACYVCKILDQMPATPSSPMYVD
Chain of UniProt P15735 (whole entry, looked up): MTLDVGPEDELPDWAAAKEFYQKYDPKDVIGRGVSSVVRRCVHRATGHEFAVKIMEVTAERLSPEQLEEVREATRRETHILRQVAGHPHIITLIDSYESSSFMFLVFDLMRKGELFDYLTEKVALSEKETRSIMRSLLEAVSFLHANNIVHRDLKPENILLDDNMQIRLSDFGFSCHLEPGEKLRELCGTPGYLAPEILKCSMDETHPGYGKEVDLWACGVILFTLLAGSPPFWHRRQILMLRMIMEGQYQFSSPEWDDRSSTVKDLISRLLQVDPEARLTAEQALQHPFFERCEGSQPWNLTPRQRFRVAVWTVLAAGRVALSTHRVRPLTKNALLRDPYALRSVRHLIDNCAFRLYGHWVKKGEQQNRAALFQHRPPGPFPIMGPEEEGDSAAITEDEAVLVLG
Chain of UniProt P45983 (whole entry, looked up): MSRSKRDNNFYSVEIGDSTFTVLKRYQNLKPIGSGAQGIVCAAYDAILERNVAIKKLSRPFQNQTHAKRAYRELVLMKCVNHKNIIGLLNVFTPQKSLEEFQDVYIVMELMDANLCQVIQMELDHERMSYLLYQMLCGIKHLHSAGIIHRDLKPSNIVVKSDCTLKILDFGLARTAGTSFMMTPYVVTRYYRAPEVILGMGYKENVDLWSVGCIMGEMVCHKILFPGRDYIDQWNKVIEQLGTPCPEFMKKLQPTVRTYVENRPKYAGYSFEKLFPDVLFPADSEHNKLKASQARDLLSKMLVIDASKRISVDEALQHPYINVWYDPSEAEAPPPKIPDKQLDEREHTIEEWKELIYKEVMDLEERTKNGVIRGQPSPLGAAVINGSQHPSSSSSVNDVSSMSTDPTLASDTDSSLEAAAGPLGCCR
Chain of UniProt P49840 (whole entry, looked up): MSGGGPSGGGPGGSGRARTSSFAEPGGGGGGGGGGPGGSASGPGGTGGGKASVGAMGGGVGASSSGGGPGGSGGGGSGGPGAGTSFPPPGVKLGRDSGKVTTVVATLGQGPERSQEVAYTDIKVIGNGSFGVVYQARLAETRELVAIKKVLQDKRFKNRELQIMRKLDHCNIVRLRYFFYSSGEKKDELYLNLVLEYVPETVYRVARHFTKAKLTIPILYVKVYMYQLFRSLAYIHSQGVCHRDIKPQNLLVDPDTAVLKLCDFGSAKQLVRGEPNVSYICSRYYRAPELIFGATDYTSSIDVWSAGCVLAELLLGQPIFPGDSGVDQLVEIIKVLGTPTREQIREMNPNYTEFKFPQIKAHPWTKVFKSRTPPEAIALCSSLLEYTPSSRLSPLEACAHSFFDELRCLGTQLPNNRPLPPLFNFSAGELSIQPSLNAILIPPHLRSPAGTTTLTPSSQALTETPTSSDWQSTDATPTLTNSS

Cc1cc(Oc2nc(N3CC[C@@H](c4ccncc4)C3)ncc2F)[nH]n1 — IC50 (PC-3; cell proliferation): 95.5 µM
O=C(C[Se]C(=O)c1ccco1)Nc1cccc(C(F)(F)F)c1 — mean TGI (NCI60 ovarian subpanel; total growth inhibition, inhibitor; five-dose): 5.21 µM
[Cl-].[Cl-].[Ru+2].c1ccc(-c2ccccn2)nc1.c1ccc(-c2ccccn2)nc1.c1ccc2cc3nc4c5cccnc5c5ncccc5c4nc3cc2c1 — phototoxicity index (SK-MEL-28; normoxia, together with: green light 523 nm, 100 J/cm2; reference: dark over light EC50): 670
CC(=O)NCSC[C@H](NC(=O)[C@@H]1CCCN1C(=O)[C@H](C)NC(=O)[C@@H](NC(=O)CNC(=O)[C@@H](NC(=O)[C@H](Cc1c[nH]c2ccccc12)NC(=O)[C@H](C)NC(=O)CNC(=O)[C@H](CO)NC(=O)[C@H](C)NC(=O)[C@@H]1CCCN1C(=O)[C@H](Cc1c[nH]c2ccccc12)NC(=O)[C@H](C)NC(=O)[C@H](C)NC(=O)[C@@H](N)Cc1ccc(O)cc1)[C@@H](C)O)[C@@H](C)O)C(=O)N[C@@H](CO)C(=O)N[C@@H](C)C(=O)NCC(=O)N[C@H](C(=O)NCCOCCOCCOCCOCCOCCOCCOCCOCCOCCOCCOCCOCCC(=O)N[C@@H](CS)C(N)=O)[C@@H](C)O — selectivity ratio (H661 lung large cell carcinoma; cell binding, phage binding, measured: output/input phage; 10 min, 37 °C; reference: control phage): 2.8 ± 2
CC1CCC2C(C)C(OC(=O)CCC(=O)N3CCC(Nc4ccc(S(=O)(=O)NC(=O)c5ccc(N6CCN(CC7=C(c8ccc(Cl)cc8)CC(C)(C)CC7)CC6)cc5Oc5cnc6[nH]ccc6c5)cc4[N+](=O)[O-])CC3)OC3OC4(C)CCC1C32OO4 (stereo not shown) — early apoptotic cells (THP-1; annexin V/PI flow cytometry, measured: annexin V+/PI-; 3.2 µM, 24 h): 61%
CCN(CC)C(=O)[C@@H]1C=C2c3cccc4c3c(cn4C(=O)c3cccs3)C[C@H]2N(C)C1 — head-twitch response count (magnetometer; C57BL/6J mouse, male; intraperitoneal, 1.5 mg/kg, 30 min session): 42.3
CSCC[C@H](NC(=O)[C@@H](NC(=O)[C@H](CCC(N)=O)NC(=O)[C@H](CO)NC(=O)[C@@H](N)C(C)C)[C@@H](C)O)C(=O)N[C@@H](CCCNC(=N)N)C(=O)N[C@@H](CCC(N)=O)C(=O)N[C@H](C(=O)N[C@@H](C)C(=O)N[C@H](C(=O)N1CCC[C@H]1C(=O)N[C@@H](CC(C)C)C(=O)N[C@@H](CC(C)C)C(=O)N[C@@H](Cc1c[nH]c2ccccc12)C(=O)N[C@@H](Cc1ccccc1)C(=O)N[C@@H](Cc1c[nH]c2ccccc12)C(=O)N[C@H](C(=O)NCC(=O)N[C@@H](CO)C(=O)N[C@@H](CC(C)C)C(=O)NCCOCCOCCOCCOCCOCCOCCOCCOCCOCCOCCOCCOCCC(=O)N[C@@H](CS)C(N)=O)[C@@H](C)O)C(C)C)[C@@H](C)O — selectivity ratio (HCC78; phage binding; reference: targeting over control phage): 0.96 ± 0.56
O=C(O)c1ccc(-c2nc(-c3ccccc3Cl)c3sccn23)cc1 — CD235a-positive cells (K562; erythroid differentiation, flow cytometry; 0.01 mM, 72 h): 66.2% and 81.2%
COc1ccccc1-c1n[nH]c2nc(N[C@H]3CC[C@H](NS(=O)(=O)CC(C)C)CC3)ncc12 — relative abundance (bead binding, competition bead pull-down, measured: LMJF.21.1860; Leishmania donovani extract; 10 µM; reference: vehicle): 1.12
O=C(C[Se]C(=O)c1cccs1)Nc1cccc(C(F)(F)F)c1 — CC50 (NCI60 renal subpanel; cytotoxicity, inhibitor; five-dose): 6.43 µM
CC(C)[C@H](NC(=O)[C@H](CCCNC(=N)N)NC(=O)[C@@H]1CCCN1C(=O)[C@@H](NC(=O)[C@H](C)NC(=O)[C@H](Cc1ccc(O)cc1)NC(=O)[C@H](CCC(N)=O)NC(=O)[C@H](CCCCN)NC(=O)[C@H](CCCNC(=N)N)NC(=O)[C@@H]1CCCN1C(=O)[C@H](CCC(=O)O)NC(=O)[C@@H](NC(=O)[C@H](C)N)[C@@H](C)O)[C@@H](C)O)C(=O)N[C@@H](Cc1ccccc1)C(=O)N[C@@H](Cc1c[nH]c2ccccc12)C(=O)N[C@H](C(=O)N[C@@H](CC(=O)O)C(=O)N[C@@H](C)C(=O)N1CCC[C@H]1C(=O)NCC(=O)NCCOCCOCCOCCOCCOCCOCCOCCOCCOCCOCCOCCOCCC(=O)N[C@@H](CS)C(N)=O)[C@@H](C)O — selectivity ratio (H1648; phage binding; 10 min, 37 °C; reference: control phage): 1.1 ± 0.26
CC(C)[C@H]1NC(=O)C[C@H]2/C=C/CCSSC[C@@H](NC1=O)C(=O)N[C@H](Cc1cccc3ccccc13)C(=O)NCC(=O)O2 — inhibition (MAP2K4 (Homo sapiens, UniProt P45985); 10 µM): -1.4%
Cc1cccc(-c2cccc(C)n2)n1.Cc1cccc(-c2cccc(C)n2)n1.F[P-](F)(F)(F)(F)F.F[P-](F)(F)(F)(F)F.[Ru+2].c1ccc2c(-c3nc4c5cccnc5c5ncccc5c4[nH]3)cccc2c1 — EC50 (SK-MEL-28; cell viability; dark, 1% O2): 107 ± 8 µM
O=C(C[Se]C(=O)c1cc2ccccc2o1)Nc1cccc(C(F)(F)F)c1 — CC50 (NCI60 ovarian subpanel; cytotoxicity, inhibitor; five-dose): 7.55 µM
COc1ccccc1-c1ccncc1C(=O)Nc1nnc(OCc2ccc(Cl)cc2)s1 — colony survival (HCT116 BRCA2-/-; 8 µM, average of 3 runs; reference: untreated): 26.7%
O=C1NC2(CC2)COc2ncc(F)cc2[C@H]2COCCN2c2ccn3ncc1c3n2 — reticulocytes (Sprague-Dawley rat, male, blood; oral, 10 mg/kg/day, end of recovery, 4-week repeated-dose toxicity; reference: red blood cells): 2.71 ± 0.63%
O=C(C[Se]C(=O)c1ccccc1)Nc1cccc(C(F)(F)F)c1 — GI50 (NCI60 ovarian subpanel; cell growth, inhibitor; five-dose): 2.39 µM
CC[C@H](C)[C@H](NC(=O)[C@H](CO)NC(=O)[C@H](Cc1ccc(O)cc1)NC(=O)[C@H](Cc1ccc(O)cc1)NC(=O)[C@H](CC(N)=O)NC(=O)CNC(=O)[C@H](CO)NC(=O)[C@H](Cc1ccc(O)cc1)NC(=O)[C@H](CO)NC(=O)[C@H](CO)NC(=O)[C@H](CC(N)=O)NC(=O)COCCOCCNC(=O)CN1CCN(CC(=O)O)CCN(CC(=O)O)CCN(CC(=O)O)CC1)C(=O)N[C@@H](CC(C)C)C(N)=O [copper-64 labelled] — tissue uptake (dynamic PET; KPC mouse Ptf1a-CreER tdTomato, metastases; intravenous, dose not given, 1.4 min, 84 d after tamoxifen): 13.8 %ID/mL
O=C(C[Se]C(=O)c1cccnc1Nc1cccc(C(F)(F)F)c1)Nc1cccc(C(F)(F)F)c1 — CC50 (NCI60 prostate subpanel (PC-3, DU-145); cytotoxicity, inhibitor; five-dose): 6.88 µM
CN(C)[C@H]1C[C@@]23CC[C@@]4(O2)C(=CC[C@]2(C)[C@@H](c5ccc6ccncc6c5)CC[C@H]24)C=C3[C@@H](O)[C@@H]1O — inhibition (GSK3A (Homo sapiens, UniProt P49840); ATP probe labelling, inhibitor, KiNativ profiling; 0.1 µM): -2%
COc1ccccc1-c1n[nH]c2nc(NC3CCN(C(=O)Cc4ccc(F)cc4F)CC3)ncc12 — relative abundance (bead binding, competition bead pull-down, measured: LINJ.35.1190; Leishmania donovani extract; 10 µM; reference: vehicle): 1.02
NC(=O)N/N=C/c1ccc(OCc2ccccc2)cc1 — glutathione peroxidase activity (OD450) (IMR-32; measured: GPX3; 400 µg/mL, 24 h; higher = more activity): 0.298 a.u.
C#CCNC(=O)c1ccc(S(=O)(=O)N[C@@H](CCCCNC(C)=S)C(=O)N[C@@H](CCCNC(=N)N)C(=O)N[C@@H](CC2CCCCC2)C(=O)N[C@H](CCCCN)C(=O)N[C@@H](CC2CCCCC2)C(N)=O)cc1 — EC50 (Jurkat; cell growth or viability, MTT; 72 h): > 60 µM
C=CCN1C(=O)C(CC=C)(C(=O)OCC)Oc2cc(F)ccc21 (stereo not shown) — inhibition (HEK293T; cytotoxicity, CCK-8; 50 µM, 72 h): 0.54 ± 0.23%
N[C@H](C(=O)N1CCCC1)C1CCN(c2nccc3c(-c4ncc(Cl)cc4Cl)cccc23)CC1 — inhibition (human neutrophils; protein citrullination, inhibitor, flow cytometry, measured: citrullinated proteins; 10 nM, together with: ionomycin): 14.9% and 4.74% and 3.08% and 7.63%
CC(=O)Oc1ccccc1C(=O)[Se]CC(=O)Nc1cccc(C(F)(F)F)c1 — CC50 (NCI60 prostate subpanel (PC-3, DU-145); cytotoxicity, inhibitor; five-dose): 54.6 µM
Cc1cc(Nc2nc(C[C@@]3(C(=O)O)CCN(Cc4cccc(Cl)c4F)[C@H](C)C3)cc(C)c2F)[nH]n1 — IC50 (A2780; cell growth or viability, ATP luminescence; 5 days): 0.0795 µM
CC(C)CC(O)(CC(C)C)c1cn(C(=O)N2CCCC2)nn1 — protein level (mouse T-cells; SILAC proteomics, measured: Ptpn18; 1 nM, 6 h, single peptides, unit not given; reference: DMSO): 0.93 and 0.97 and 1.11
O=C(C[Se]C(=O)c1ccc2ccccc2c1)Nc1cccc(C(F)(F)F)c1 — CC50 (NCI60 renal subpanel; cytotoxicity, inhibitor; five-dose): 6.76 µM
CC(C)(C)C(=O)OCOP(=O)(OCOC(=O)C(C)(C)C)C1CCCN(O)C1=O (stereo not shown) — log GI50 (SK-MEL-28): -6.49 log M
O=C1NC(=O)c2c1c1cc(F)c[n+]3c1c1c2c2cc(O)ccc2[n]1[Ru-4]312([N]=C=S)[S+]3CC[S+]1CC[S+]2CC3 (stereo not shown) — remaining activity (PHKG2 (Homo sapiens, UniProt P15735); enzyme activity; 100 nM, human enzyme, together with: 10 µM ATP; reference: untreated): 93%
CC(C)C[C@H](NC(=O)[C@H](CC(=O)O)NC(=O)CNC(=O)[C@@H](N)CCCNC(=N)N)C(=O)N[C@@H](C)C(=O)N[C@H](C(=O)N[C@@H](CC(C)C)C(=O)N[C@@H](CCCNC(=N)N)C(=O)N[C@@H](CCC(N)=O)C(=O)N[C@@H](CC(C)C)C(=O)N[C@@H](C)C(=O)N[C@@H](CCC(N)=O)C(=O)N[C@@H](CCC(=O)O)C(=O)N[C@@H](CC(=O)O)C(=O)NCC(=O)N[C@H](C(=O)N[C@H](C(=O)NCC(=O)N[C@H](C(=O)N[C@@H](CCCNC(=N)N)C(=O)NCCOCCOCCOCCOCCOCCOCCOCCOCCOCCOCCOCCOCCC(=O)N[C@@H](CS)C(N)=O)C(C)C)C(C)C)C(C)C)[C@@H](C)O — selectivity ratio (HCC78; phage binding; reference: targeting over control phage): 95 ± 21
C#CCN1C(=O)C(CC#C)(C(=O)OCC)Oc2ccccc21 (stereo not shown) — inhibition (HEK293T; cytotoxicity, CCK-8; 6.25 µM, 72 h): 0.27 ± 0.56%
CS(C)(=O)=Nc1ccc(-c2ccc(-c3nc4cc(O[C@@H]5CO[C@H]6[C@@H]5OC[C@H]6O)[nH]c4cc3F)cc2)cc1 — inhibition (MAPK8 (Homo sapiens, UniProt P45983); enzyme activity, inhibitor; 10 µM): 10%
